{"data": "Published values from different studies", "note": "Numbered parts are unrelated; each lists some results of a single study. Positions count from the first letter of the parent shown."}
{"data": "Series 1", "target": "NFE2L2, bZIP domain (human)", "technique": "DHFR protein complementation", "sample": "yeast", "setting": "single substitutions, most at no-binding floor", "relative to": "wild-type JUN-FOS pair", "direction": "higher = stronger binding", "starting sequence": "JUN, bZIP domain (human); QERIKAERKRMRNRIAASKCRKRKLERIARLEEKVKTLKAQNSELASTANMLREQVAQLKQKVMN; partner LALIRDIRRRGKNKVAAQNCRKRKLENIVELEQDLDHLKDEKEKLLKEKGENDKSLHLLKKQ"}
{"Change": "K36C", "binding fitness [natural log]": -1.36}
{"Change": "E33F", "binding fitness [natural log]": -1.47}
{"Change": "A49S", "binding fitness [natural log]": -1.45}
{"Change": "V56A", "binding fitness [natural log]": -1.26}
{"Change": "N42P", "binding fitness [natural log]": -1.47}
{"Change": "K39R", "binding fitness [natural log]": -1.21}
{"Change": "A49K", "binding fitness [natural log]": -1.52}
{"Change": "L45H", "binding fitness [natural log]": -1.47}
{"Change": "R30N", "binding fitness [natural log]": -1.25}
{"Change": "E33R", "binding fitness [natural log]": -1.3}
{"Change": "L52S", "binding fitness [natural log]": -1.55}
{"Change": "T37D", "binding fitness [natural log]": -1.54}
{"Change": "L31T", "binding fitness [natural log]": -1.53}
{"data": "Series 2", "target": "CCNF, cyclin fold, Cln2 fusion (human)", "technique": "yeast growth competition, sequencing", "sample": "yeast", "setting": "strong parent motif", "relative to": "not given", "direction": "higher = stronger binding", "starting sequence": "CDC25A docking peptide (human); PPHRRRLLFACSP; partner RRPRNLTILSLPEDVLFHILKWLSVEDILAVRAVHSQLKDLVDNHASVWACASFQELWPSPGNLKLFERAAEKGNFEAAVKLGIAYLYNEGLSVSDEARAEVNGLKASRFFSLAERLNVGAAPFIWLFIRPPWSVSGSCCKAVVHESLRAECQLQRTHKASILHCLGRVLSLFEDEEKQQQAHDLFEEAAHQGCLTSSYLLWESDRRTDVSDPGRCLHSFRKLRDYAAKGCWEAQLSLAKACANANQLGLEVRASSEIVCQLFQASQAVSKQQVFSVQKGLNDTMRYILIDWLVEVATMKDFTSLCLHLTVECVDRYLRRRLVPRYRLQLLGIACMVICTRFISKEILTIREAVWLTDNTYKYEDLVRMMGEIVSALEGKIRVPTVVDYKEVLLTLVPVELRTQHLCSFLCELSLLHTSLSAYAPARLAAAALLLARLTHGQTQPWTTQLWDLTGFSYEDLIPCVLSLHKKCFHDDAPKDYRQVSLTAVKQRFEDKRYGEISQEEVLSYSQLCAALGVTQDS"}
{"Change": "R4D", "normalised enrichment score": 1.81}
{"Change": "F9K", "normalised enrichment score": 0.996}
{"Change": "R6I", "normalised enrichment score": 4.09}
{"Change": "A10D", "normalised enrichment score": 8.96}
{"Change": "P1D", "normalised enrichment score": 6.98}
{"Change": "C11D", "normalised enrichment score": 7.92}
{"Change": "R4N", "normalised enrichment score": 6.26}
{"Change": "P1M", "normalised enrichment score": 7.51}
{"Change": "L8Q", "normalised enrichment score": 6.44}
{"Change": "P2Q", "normalised enrichment score": 6.98}
{"Change": "P2T", "normalised enrichment score": 7.66}
{"Change": "F9L", "normalised enrichment score": 3.8}
{"Change": "P1T", "normalised enrichment score": 6.78}
{"Change": "P2A", "normalised enrichment score": 6.84}
{"Change": "P1R", "normalised enrichment score": 6.15}
{"Change": "A10I", "normalised enrichment score": 7.07}
{"Change": "P13A", "normalised enrichment score": 7.95}
{"Change": "S12I", "normalised enrichment score": 7.28}
{"Change": "C11H", "normalised enrichment score": 7.58}
{"Change": "P2W", "normalised enrichment score": 5.3}
{"Change": "S12T", "normalised enrichment score": 7.04}
{"Change": "F9C", "normalised enrichment score": 1.37}
{"Change": "C11L", "normalised enrichment score": 8}
{"Change": "S12H", "normalised enrichment score": 7.38}
{"Change": "R5H", "normalised enrichment score": 1.78}
{"data": "Series 3", "target": "RING finger protein unkempt homolog, zinc fingers 1-6, GST-SBP tag (UNK, Homo sapiens, UniProt Q9C0B0, residues 30-357)", "technique": "RNA Bind-n-Seq", "form": "RNA", "sample": "in vitro", "tested at": "not given", "setting": "RNA with constant flanks, human and mouse sites, ends assumed", "relative to": "input RNA pool", "direction": "higher = stronger binding"}
{"Strand": "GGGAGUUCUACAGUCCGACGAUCAAUAAUACUAUUCAAAAUGGAGGAGGAGAUGACUUAUCUAAUCAGGAAUUAAUUGGAAAAAAAGAAUAUAAAAUGUCUUCAAAGAAACUAAAAAUUGGUGAAAGAACAAAUGAAAGGAUACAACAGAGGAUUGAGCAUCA", "bound/input enrichment [ratio]": 0.377}
{"Strand": "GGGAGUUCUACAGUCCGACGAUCGGAGCCAGGAUUGUUGGUCAUUUGACUCAUGCCUUGAAGCAAGGAGAAUACGGUCUUGCCAGUAUUUGCAAUGGAGGAGGAGGUGCUUCUGCCAUGCUAAUUCAGAAGCUGUAGACAACCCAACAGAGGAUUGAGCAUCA", "bound/input enrichment [ratio]": 0.203}
{"Strand": "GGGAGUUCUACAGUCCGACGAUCAGCUCCCCGUAUUUCCGGGACCAUUCAGCACUGAGCACUAUGAGUGGCUUGUCGAUCUCUGUGAUUAAGAACCCCAGCGUGUUUGAGCAGUUGCUCUCCUUCUGUUACACUGGAAGGAUGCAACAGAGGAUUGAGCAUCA", "bound/input enrichment [ratio]": 0.0553}
{"Strand": "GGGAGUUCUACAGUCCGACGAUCGCGUUAGGGACUCCGAAACAGCAGCUCCAUACAAUGGCUCAGAAAACCAUCUUUAGUACUGGCACACCAGUGGCUGCAGCUACAGUAGCACCUAUUCUGGCAACCAACACGCUUCCUUCACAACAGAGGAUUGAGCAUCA", "bound/input enrichment [ratio]": 0.287}
{"Strand": "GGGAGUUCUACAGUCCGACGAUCUGCAUGCUGCUGUUUGUGUUUGGCUUUGUUGGCGGGGCGGUGGUCAUUAAUUCUGCUAUCUUAGUAUCUCUCUCUGUUUUGCUGCUUGUGCACUUUUCUAUUUCUACCGGUGUGCCAGCUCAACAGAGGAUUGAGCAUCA", "bound/input enrichment [ratio]": 0.985}
{"Strand": "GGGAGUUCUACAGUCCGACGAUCGAUGGCAAUGGCCAGGAGGCCUAUGCCUCAAGCUGUAACAGUGGCACGUCCUACAAUUCCAUUAGCUCAGUGGUGUCCCGGUGAGGGCAGCCUUGGCUUGGGUAGGGUCUUUAUGGACUGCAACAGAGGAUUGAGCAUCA", "bound/input enrichment [ratio]": 0.153}
{"Strand": "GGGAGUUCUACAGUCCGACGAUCAAAUACAAGCAAGCUUUACUACAGUAUAAGAAGAUCGUGUCUUGGCUGGAAUAUGAGUCUAGUUUUUCCAAUGAGGAAGCACAGAAAGCACAGGCCCUUCGACUGGCCUCUCACCUCAACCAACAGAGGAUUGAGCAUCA", "bound/input enrichment [ratio]": 0.233}
{"Strand": "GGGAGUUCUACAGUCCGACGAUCAGUCUGCAUGCUAUGGAGUCCACCAGAGAGUCACUGAAAGCGGAGCUAGGAACGGAUUUGCUUUCUCAACUCAGUCUGGAAGAUCAGAAAAGAGUCGACGCUCUGAAUGAUGAAAUCCGUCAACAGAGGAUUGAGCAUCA", "bound/input enrichment [ratio]": 0.0864}
{"Strand": "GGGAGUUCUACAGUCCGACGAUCCACUAUAGACCUUUCCUCACUAGUUUCCAGCCUGACUUUAUUUCAGCCUUGGCUGUAGUCUAUUUCUAGCUUUUGAGGAGGUCUGGUUUUUACAGCUGAAAUCUAUUCUCUACCCACUUUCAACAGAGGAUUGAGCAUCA", "bound/input enrichment [ratio]": 0.327}
{"Strand": "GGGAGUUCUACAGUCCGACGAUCAGUAAAUCUGCAGAGGAGCCACAGGAAAAAGUUGACUUGACUCUAGAUUGGUUAACUGAAACCUCUGAAGAGGCAAAAGGAGGAGCAGCACCAGAAGGACCGAAUGAAGCUGAGGUCACUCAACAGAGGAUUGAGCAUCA", "bound/input enrichment [ratio]": 0.145}
{"Strand": "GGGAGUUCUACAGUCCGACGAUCCUCACUGUUCAUUACAAAAGCGUACACCUUGGAGAGAAAGUGUGGCAAAAAUAUAAAGCAACAUUUCAUCAAUGUGAUGUUUGUAAGAAAAUUUUUAAAGGCAAAUCAAGUCUGGAAAUGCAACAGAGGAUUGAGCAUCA", "bound/input enrichment [ratio]": 0.161}
{"data": "Series 4", "Molecule": "STUB1 RING domain (UniProt Q9UNE7)", "technique": "yeast two-hybrid", "sample": "yeast", "setting": "mostly zero background", "relative to": "not given", "direction": "higher = stronger interaction"}
{"target": "UBE2T UBC core domain (UniProt Q9NPD8)", "lacZ reporter activity": 0}
{"target": "UBE2J2 UBC core domain (UniProt Q8N2K1)", "lacZ reporter activity": 2160}
{"target": "UBE2E3 UBC core domain (UniProt Q969T4)", "lacZ reporter activity": 0}
{"target": "UBE2M UBC core domain (UniProt P61081)", "lacZ reporter activity": 0}
{"target": "UBE2J1 UBC core domain (UniProt Q9Y385)", "lacZ reporter activity": 0}
{"target": "UBE2O UBC core domain (UniProt Q9C0C9)", "lacZ reporter activity": 0}
{"target": "UBE2G1 UBC core domain (UniProt P62253)", "lacZ reporter activity": 0}
{"target": "UBE2R2 UBC core domain (UniProt Q712K3)", "lacZ reporter activity": 0}
{"target": "UBE2S UBC core domain (UniProt Q16763)", "lacZ reporter activity": 0}
{"target": "UBE2D1 UBC core domain (UniProt P51668)", "lacZ reporter activity": 0}
{"target": "UBE2Q1 UBC core domain (UniProt Q7Z7E8)", "lacZ reporter activity": 0}
{"target": "BIRC6 UBC core domain (UniProt Q9NR09)", "lacZ reporter activity": 0}
{"target": "UBE2Z UBC core domain (UniProt Q9H832)", "lacZ reporter activity": 3210}
{"target": "UBE2B UBC core domain (UniProt P63146)", "lacZ reporter activity": 0}
{"target": "UBE2L3 UBC core domain (UniProt P68036)", "lacZ reporter activity": 0}
{"target": "UBE2I UBC core domain (UniProt P63279)", "lacZ reporter activity": 0}
{"target": "UBE2C UBC core domain (UniProt O00762)", "lacZ reporter activity": 0}
{"data": "Series 5", "target": "TAR DNA-binding protein 43, full length, His tag (TARDBP, Homo sapiens, UniProt Q13148, residues 1-414)", "technique": "RNA Bind-n-Seq", "form": "RNA", "sample": "in vitro", "tested at": "20 nM", "setting": "6-mer, flanks averaged, single round", "together with": "150 mM KCl", "relative to": "input library", "direction": "higher = stronger binding"}
{"Strand": "CAAGGA", "6-mer enrichment (R)": 0.897}
{"Strand": "GGAUAG", "6-mer enrichment (R)": 1.63}
{"Strand": "CGGUAC", "6-mer enrichment (R)": 0.816}
{"Strand": "UUCCUA", "6-mer enrichment (R)": 0.549}
{"Strand": "CACUAA", "6-mer enrichment (R)": 0.632}
{"Strand": "ACGCGG", "6-mer enrichment (R)": 1.8}
{"Strand": "UAGGGC", "6-mer enrichment (R)": 1.91}
{"Strand": "AGCCUC", "6-mer enrichment (R)": 0.618}
{"Strand": "UGAUCC", "6-mer enrichment (R)": 0.612}
{"Strand": "AAAUUG", "6-mer enrichment (R)": 0.662}
{"Strand": "ACUUGA", "6-mer enrichment (R)": 0.641}
{"Strand": "GAAUUC", "6-mer enrichment (R)": 0.622}
{"Strand": "AGAAGC", "6-mer enrichment (R)": 0.826}
{"Strand": "UGCGCU", "6-mer enrichment (R)": 0.773}
{"Strand": "AGCCCU", "6-mer enrichment (R)": 0.635}
{"Strand": "ACAAUU", "6-mer enrichment (R)": 0.667}
{"note": "Excerpt of the above (series 4):"}
{"target": "UBE2G1 UBC core domain (UniProt P62253)", "lacZ reporter activity": 0}
{"target": "UBE2R2 UBC core domain (UniProt Q712K3)", "lacZ reporter activity": 0}
{"target": "UBE2S UBC core domain (UniProt Q16763)", "lacZ reporter activity": 0}
{"target": "UBE2D1 UBC core domain (UniProt P51668)", "lacZ reporter activity": 0}
{"target": "UBE2Q1 UBC core domain (UniProt Q7Z7E8)", "lacZ reporter activity": 0}
{"target": "BIRC6 UBC core domain (UniProt Q9NR09)", "lacZ reporter activity": 0}
{"target": "UBE2Z UBC core domain (UniProt Q9H832)", "lacZ reporter activity": 3210}
